Measurements gathered from unrelated publications.
Parts stem from different laboratories: compare values within a part only.

Study 1
Target: Phosphate system positive regulatory protein PHO4, full length, GST-tagged (PHO4, Saccharomyces cerevisiae, UniProt P07270, residues 1-312)
Method: competition protein-binding microarray
Form: double-stranded DNA, one strand shown
Sample: in vitro
Concentration: 2 µM
Notes: whole 60-bp probe, lowest competitor level
With: Cbf1 competitor, 0.05 µM
Direction: higher = stronger binding
All sequences stand within: … GTCTTGATTCGCTTGACGCTGCTG
Construct (chain): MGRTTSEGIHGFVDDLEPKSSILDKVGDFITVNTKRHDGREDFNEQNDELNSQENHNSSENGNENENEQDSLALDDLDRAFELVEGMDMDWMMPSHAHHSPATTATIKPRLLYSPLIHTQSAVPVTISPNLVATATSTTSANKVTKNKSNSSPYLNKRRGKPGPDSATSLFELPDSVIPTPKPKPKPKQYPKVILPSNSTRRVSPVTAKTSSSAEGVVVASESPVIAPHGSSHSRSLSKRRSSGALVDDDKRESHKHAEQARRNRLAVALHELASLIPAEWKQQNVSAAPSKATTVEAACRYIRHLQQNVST
`GATGAACTTGTTTAGCACGTGAATATAAGATGAGAG` gave a fluorescence intensity of 18100 a.u.
`AGTACCACCTCTTTGAACGTGACAAAAGGTAGTAAT` has a fluorescence intensity of 11000 a.u.
With `CGTCCTAGCGATTGACTTGTGGGTGCCATGAGGAAG` the fluorescence intensity was 7220 a.u.
With `TGAGTTAAGTGTAGGCATGTGACTCACTTCTGGTAA` the fluorescence intensity was 9740 a.u.
For `AGTTTCAATATCTGTCCCGTGGAAGTTATATTCGCT`, the fluorescence intensity was 5940 a.u.
`AAAGCGGTAATTTGTCACATGACTTCACATATCTAT` has a fluorescence intensity of 7030 a.u.
With `ATGTTCCTGAGGTTCCACGTGCAAAGCTAGAAGAAA` the fluorescence intensity was 17800 a.u.
With `CAAAGTGAACCTGGACACGTTCTTGCCAGTGCTTTC` the fluorescence intensity was 12800 a.u.
`CTTCTGTAAATTTGTCAGGTGGGTGGACGCGCCCCG` has a fluorescence intensity of 5110 a.u.
With `TCACTCCTAGTTTTCCATGTGGCTTCAGCTCGAGGA` the fluorescence intensity was 7210 a.u.
`GTATTCAGAGACCATCACGTGATGGAAACGCGATTA` has a fluorescence intensity of 14900 a.u.
`CGGGGTTAAGTTTGATAAGTGGGTGGCTTGCAGCAG` gave a fluorescence intensity of 4490 a.u.
With `ATCCAGAACCCGTATCGCGTGCAAACAAAGAGATTT` the fluorescence intensity was 7950 a.u.
With `GGATCAACAAAATGGGGCGTGATGGAGAAAAAAAGT` the fluorescence intensity was 9500 a.u.
For `CCGTAGGGACTTTTGCACGTTATTATGGGAATATCA`, the fluorescence intensity was 7810 a.u.
The fluorescence intensity of `CTTGCTCACTTCTGGCGTGTTCAAGTGGGGATCTGT` is reported as 4850 a.u.
`CTAGTATTGAATGTTTTCGTGATGGTTTATTGAGAC` gave a fluorescence intensity of 4870 a.u.
`AAAGCGGTAATTTGTCACGCAACTTCACATATCTAT` has a fluorescence intensity of 5400 a.u.
With `AAAGCGGTAATTTGGTTAGTGGGTGCAGATATCTAT` the fluorescence intensity was 4160 a.u.

Study 2
Target: RING finger protein unkempt homolog, zinc fingers 1-6, GST-SBP tag (UNK, Homo sapiens, UniProt Q9C0B0, residues 30-357)
Sequence of UniProt Q9C0B0 (30-357, looked up): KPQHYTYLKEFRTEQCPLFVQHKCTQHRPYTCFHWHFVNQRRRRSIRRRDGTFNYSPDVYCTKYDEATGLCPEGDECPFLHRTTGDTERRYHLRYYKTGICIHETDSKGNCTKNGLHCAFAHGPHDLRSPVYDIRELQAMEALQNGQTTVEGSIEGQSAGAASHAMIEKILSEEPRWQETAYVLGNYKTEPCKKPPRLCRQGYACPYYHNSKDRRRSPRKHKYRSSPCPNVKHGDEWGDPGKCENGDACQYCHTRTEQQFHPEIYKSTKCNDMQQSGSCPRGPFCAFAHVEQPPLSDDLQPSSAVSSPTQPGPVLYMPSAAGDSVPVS
Method: RNA Bind-n-Seq
Form: RNA
Sample: in vitro
Concentration: not given
Notes: RNA with constant flanks, human and mouse sites, ends assumed
Reference: input RNA pool
Direction: higher = stronger binding
All sequences stand within: GGGAGUUCUACAGUCCGACGAUC … CAACAGAGGAUUGAGCAUCA
With `AUGAGUAAGCAGUACGGCAGCGAGACGUUUUUGGCCAAGCUUAUUGCUCAGGCUUGUGUUUCUAUCUUUCCUGAUUCUGGCAAUUUCAAUGUUGAUAACAUCAGAGUAUGUAAGAUUCUG` the bound/input enrichment was 0.221 ratio.
With `GCCCAGGGUCGCCAUGUGGAAAUAUUUGAGCUCCUUAAACCUCCGUGUGGAGGCCUCGGCUUUAGUGUUGUUGGGCUCAGAAGUGAAAACAGGGGCGAGCUGGGGAUAUUUGUCCAGGAG` the bound/input enrichment was 0.432 ratio.
The bound/input enrichment of `GCAACUUGGAAAGGCUGUCUUUCAAACUUCAGUUCCUAUCUGACUAAAACAGCCGAUUUCAUAGAACAAUCAGUUUUUUACUGGGAACAGGUGACAGAUGGGUUUUUCAUUUUCAAUGAA` is reported as 0.213 ratio.
With `UAGUGGCAGUUCAUUGCAACAAAUGGCCUUAAGAUGCUGGAGCCUCAAGUUCAAGCAGUCCGAUCACCAGUUCCUCCAUCAGAGCAAUGUCUUCCAUCACAUCAACAACAUCUUGUCGAA` the bound/input enrichment was 0.107 ratio.
The bound/input enrichment of `UCAGCGAGGACCUCUGCAAGCCAAAAAAUGUCGUCCCAGCAAUAUCAGCAGCAACGUAGAAAAUUUGCAGCUGCCUUCCUGGCAUUGAUUUUCAUCUUGGCAGCUGUGGACACUGCUGAG` is reported as 0.107 ratio.
For `UGUGAGAACCUGCCCGCUGAAGGUAGAGAGACUGUAAUUAUGAAUCAAAUCCUGCCCUAUAUAAAGGAAUUAGUGUCUGAUACCAACCAACAUGUCAAGUCAGCGCUAGCUUCUGUAAUU`, the bound/input enrichment was 0.284 ratio.
`UCCUAAUACUCCACAUUCAAACUGAAGAGGAAAAUUGAAAUCUCUAAUGAAGCUGCUGUGUGUAUUUAUGAAUAUUAAUGAAUAAAAACUGCUUGGAUGGUUUACCUAACUACUGCAUGA` gave a bound/input enrichment of 1.36 ratio.
The bound/input enrichment of `UCUCUGUUCAGCCGUUAAUGCUGGGAUCCAUAUUUAGUUUUAUAAGCUUUUCCCUGUUUUUAGUUUCGUUUGGGUUUUUUUGGCUCAUGGAUUUUAUUUUCUGUUUGUCGAUAAGAAAUG` is reported as 48.4 ratio.

Study 3
Target: RNA binding protein fox-1 homolog 2, RRM domain, GST-SBP tag (RBFOX2, Homo sapiens, UniProt O43251-10, residues 100-194)
Method: RNA Bind-n-Seq
Form: RNA
Sample: in vitro
Concentration: 365 nM
Notes: natural RNA segment, single round, ends assumed
Reference: no-protein control
Direction: higher = stronger binding
All sequences stand within: GGGAGUUCUACAGUCCGACGAUC … UGGAAUUCUCGGGUGCCAA
Target sequence (chain): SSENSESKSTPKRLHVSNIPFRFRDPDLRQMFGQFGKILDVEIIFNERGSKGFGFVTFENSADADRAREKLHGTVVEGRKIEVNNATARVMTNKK
`GUCAAAGUGCUGGAAUUUUCCAAAACAGCCUGUUCUCUCCUCUCUCCUCCCCAGAGCACCCCCUGCCAUCAGGGGGGUUGAAAUCCCUCUCCCCCAGGAGCCCUGCUGCU` — result for “RBNS enrichment (R)”: 0.548.
`UAAACAGCUCCUCCCAGCAUUUGCAUUUGCCCUUCUGUUUCUGUGAGGCCGGCAGCCCUUGGGGCUGGGGAGAGCACAGCUUGCCUUGGACUUGCUUCUGAACACGAAUU`: “RBNS enrichment (R)” 0.909.
Under “RBNS enrichment (R)”, `UAUCUCAGGAUAUGGAAGUUUCUGGGUUUAUUUACCCCUCAGUGCCCAGAGUUAAAGUUUCAGAAGAGACUUGUGCACAUAAGGGCUUCAUCUCAAGUGUAUUGCAGUAA` is recorded as 0.292.
`CCCGCCCCCCAACAUCCCCCGGGACUAGCACACCCUGCCUUGGCGGGACCAGCGGGCAUUUGUUUUCUUGCUGACUUUGCACCUCCUUUUUUCCCCAAACACUUUGCCAG` — result for “RBNS enrichment (R)”: 0.489.
`CCUGGCUUCCUACUUGGGUAUAGCAUGUCCAAACUGGGCUCUGAACACUACAGCCUGCCUUGGAGCUGGCCUAUCUCUGGGGGUGUUAGAGAGUUUGUGGGGAUCUCUUC` — result for “RBNS enrichment (R)”: 4.45.
Under “RBNS enrichment (R)”, `AUGGGACGCAGGGCCCCAUCUGUCCCUCGGUCGCCGUGUGGCCAGAGUGGGUCCGUCGUCCCCAACACUCGUGCUCGCUCAGACACUUUGGCAGGAUGUCUGGGGCCUCA` is recorded as 0.193.
For `AGACAUGCUAGGAUUAAGGGUGUGUGCCACUAUGCCUGGCUUAAGUCUUUUUCUCACUCAAACCUUCUCUCUGUAGAAGCAGAAAAGUUGCUGAUAGCCAGGAAAGAGAG`, “RBNS enrichment (R)” read 0.386.
Under “RBNS enrichment (R)”, `GUGUUUGCUCUUUUCCAUGCCCAUGCAACCCAGAUUGGGGUGGAGCAGGAAGGAGCUCUUUUCUGUUCCCAAGCCUCAGAACUCUUGAGCUGUGGCUUACUUGCUGUCUU` is recorded as 0.268.

Study 4
Target: Histone acetyltransferase KAT6A, winged helix 1, GST fusion (KAT6A, Homo sapiens, UniProt Q92794, residues 1-85)
Method: protein binding microarray
Form: double-stranded DNA, one strand shown
Sample: in vitro
Concentration: not given
Notes: 8-mer, flanks averaged, mean of 2 arrays, mostly near background
Reference: not given
Direction: higher = stronger binding
Target sequence (chain): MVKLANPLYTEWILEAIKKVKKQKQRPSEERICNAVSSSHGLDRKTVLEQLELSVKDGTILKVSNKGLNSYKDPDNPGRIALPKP
With `ATGTCACG` the E-score was 0.0406.
`CAGCCACG` has an E-score of -0.00949.
With `GCGTTCTA` the E-score was 0.101.
For `AGGGCCGG`, the E-score was 0.15.
With `CCCGAGTC` the E-score was 0.0483.
`CCCCCACG` gave an E-score of 0.0737.
With `AGGGTTGA` the E-score was -0.143.
The E-score of `GACACATC` is reported as -0.109.
`CACAACGG` gave an E-score of 0.199.
`GTGCGACA` gave an E-score of 0.153.
`CAGTATTC` gave an E-score of -0.161.
For `GGAGTCCA`, the E-score was -0.0672.
The E-score of `ACTTGGAT` is reported as -0.112.
`AATATCTC` has an E-score of -0.08.
With `GGAACATA` the E-score was -0.0646.
`GCATAGAC` gave an E-score of -0.017.

Some of these lines once more (study 3):
`CCCGCCCCCCAACAUCCCCCGGGACUAGCACACCCUGCCUUGGCGGGACCAGCGGGCAUUUGUUUUCUUGCUGACUUUGCACCUCCUUUUUUCCCCAAACACUUUGCCAG` — result for “RBNS enrichment (R)”: 0.489.
For `AGACAUGCUAGGAUUAAGGGUGUGUGCCACUAUGCCUGGCUUAAGUCUUUUUCUCACUCAAACCUUCUCUCUGUAGAAGCAGAAAAGUUGCUGAUAGCCAGGAAAGAGAG`, “RBNS enrichment (R)” read 0.386.
`GUCAAAGUGCUGGAAUUUUCCAAAACAGCCUGUUCUCUCCUCUCUCCUCCCCAGAGCACCCCCUGCCAUCAGGGGGGUUGAAAUCCCUCUCCCCCAGGAGCCCUGCUGCU` — result for “RBNS enrichment (R)”: 0.548.
`CCUGGCUUCCUACUUGGGUAUAGCAUGUCCAAACUGGGCUCUGAACACUACAGCCUGCCUUGGAGCUGGCCUAUCUCUGGGGGUGUUAGAGAGUUUGUGGGGAUCUCUUC` — result for “RBNS enrichment (R)”: 4.45.
`UAAACAGCUCCUCCCAGCAUUUGCAUUUGCCCUUCUGUUUCUGUGAGGCCGGCAGCCCUUGGGGCUGGGGAGAGCACAGCUUGCCUUGGACUUGCUUCUGAACACGAAUU`: “RBNS enrichment (R)” 0.909.
